Results collected from several papers.
Protocols differ between the studies behind these lines. ± gives the spread as reported.

SMILES	test	system	setting	Cmax
C[C@@H](Oc1ccc(S(C)(=O)=O)cc1C(=O)N1C[C@@H]2C[C@]2(c2cc(C(F)(F)F)on2)C1)C(F)(F)F		healthy male volunteers, plasma	oral, 25 mg, geometric mean, with: itraconazole	366 nM
CCCC[C@H](NC(C)=O)C(=O)N[C@H]1CCC(=O)NC[C@@H](C(=O)N[C@@H](Cc2c[nH]c3ccccc23)C(N)=O)NC(=O)[C@H](CCCNC(=N)N)NC(=O)[C@@H](Cc2ccccc2)NC(=O)[C@H](Cc2c[nH]cn2)NC1=O		healthy volunteers, plasma	subcutaneous, 3.0 mg once daily, day 7, steady state geometric mean	57.2 ng/mL
C=C(C)[C@@H]1CC[C@]2(NCCN3CCS(=O)(=O)CC3)CC[C@]3(C)[C@H](CC[C@@H]4[C@@]5(C)CC=C(C6=CC[C@@](CF)(C(=O)O)CC6)C(C)(C)[C@@H]5CC[C@]43C)[C@@H]12		HIV-1-positive treatment-naive adults, plasma	oral, 80 mg single dose, day 1, with food	430 ng/mL
O=C(CCCCCCC(=O)Nc1ccccc1)NO		patients, serum	oral, 800 mg, cycle 1 day 2, with: flavopiridol 30+30 mg/m2	6430 nM
COc1cc2c3c(n(CCCN4CCOCC4)c(=O)c2cc1OC)-c1cc2c(cc1C3=O)OCO2		patients, plasma	intravenous infusion, 10 mg/m^2 daily over 1 h, cycle 1 day 3	347 ng/mL
COc1ccc2c3c1O[C@H]1C[C@@H](OC(=O)c4ccccc4)C=C[C@@]31CCN(C)C2		healthy young men, plasma	intranasal, 11 mg, single dose	19.4 ng/mL
COc1cccc(N2CCN(C3=Nc4c(F)cccc4[C@H](CC(=O)O)N3c3cc(C(F)(F)F)ccc3OC)CC2)c1	UHPLC-MS/MS	healthy women, plasma	intravenous infusion, 720 mg single dose, 60 min infusion, HPβCD formulation	39100 ± 3060 ng/mL
O=C(O)C[C@H](O)C[C@H](O)/C=C/c1c(C2CC2)nc2ccccc2c1-c1ccc(F)cc1		healthy Chinese female volunteers, plasma	oral, 2 mg once daily, multiple dose	98.8 ng/mL
C#C[C@]1(O)CC[C@H]2[C@@H]3CCC4=CC(=O)CC[C@@H]4[C@H]3CC[C@@]21C		healthy women, plasma	oral, 1 mg single dose, day 1, with: ethinyl estradiol 35 µg	8.3 ng/mL
CCCN1CC(c2ccc(S(C)(=O)=O)cc2)=C(c2ccc(C)cc2)C1=O		healthy Chinese, elderly, plasma	oral, 100 mg	15 ng/mL
Cc1cc(Nc2cc3ncccc3c(N[C@@H]3C[C@H]4CC[C@@H](C3)N4CCC#N)n2)n[nH]1		pregnant rabbit, maternal plasma	oral, 30 mg/kg/day, gestation day 19	311 ng/mL
C[C@]12C=CC(=O)C=C1CC[C@@H]1[C@@H]2[C@@H](O)C[C@@]2(C)[C@H]1C[C@H]1O[C@@H](C3CCCCC3)O[C@]12C(=O)CO		children with asthma, serum	inhaled, 80 µg ciclesonide, day 7, geometric LS mean, dose-normalised, spacer	0.201 ng/mL
CCOc1ccc(Cc2cc([C@@H]3S[C@H](CO)[C@@H](O)[C@H](O)[C@H]3O)c(OC)cc2C)cc1		Japanese type 2 diabetes patients, plasma	oral, 5 mg single dose, eGFR below 30 mL/min/1.73 m^2	195 ± 63.1 ng/mL
Cc1ccc(NC(=O)c2ccc(CN3CCN(C)CC3)cc2)cc1Nc1nccc(-c2cncc(-c3oncc3C)c2)n1		Parkinson's disease patients, plasma	oral, 100 mg once daily, day 1, 7-day dosing, mean	4160 ng/mL
CO/N=C1\C[C@]2(C[C@@H]3C[C@@H](C/C=C(\C)C[C@@H](C)/C=C/C=C4\CO[C@@H]5[C@H](O)C(C)=C[C@@H](C(=O)O3)[C@]45O)O2)O[C@H](/C(C)=C/C(C)C)[C@H]1C		parasitized Corriedale lambs, plasma	subcutaneous, 0.2 mg/kg, with: closantel 5 mg/kg subcutaneous	33.2 ± 16.9 ng/mL
CS(=O)(=O)n1cc2c(n1)CN([C@H]1CO[C@H](c3cc(F)ccc3F)[C@@H](N)C1)C2		healthy Japanese men, plasma	oral, 50 mg once weekly, day 15	1310 nM
COc1c(OCCCN2CCOCC2)ccc2c1N=C(NC(=O)c1cnc(N)nc1)N1CCN=C21	LC-MS/MS	patients with solid tumours, expansion cohort, plasma	intravenous, 0.8 mg/kg, cycle 1 day 15, geometric mean	477 ng/mL

Repeated from above:
SMILES	test	system	setting	Cmax
O=C(O)C[C@H](O)C[C@H](O)/C=C/c1c(C2CC2)nc2ccccc2c1-c1ccc(F)cc1		healthy Chinese female volunteers, plasma	oral, 2 mg once daily, multiple dose	98.8 ng/mL
C#C[C@]1(O)CC[C@H]2[C@@H]3CCC4=CC(=O)CC[C@@H]4[C@H]3CC[C@@]21C		healthy women, plasma	oral, 1 mg single dose, day 1, with: ethinyl estradiol 35 µg	8.3 ng/mL
